# Measurements collected from several papers.
# A part holds a random share of what one study measured. Changes are numbered by the printed parent chain.

# Block 1
# Target: Sal-like protein 4, full length isoform A (SALL4, Homo sapiens, UniProt Q9UJQ4, residues 1-1053)
# Sequence of UniProt Q9UJQ4 (whole entry, looked up): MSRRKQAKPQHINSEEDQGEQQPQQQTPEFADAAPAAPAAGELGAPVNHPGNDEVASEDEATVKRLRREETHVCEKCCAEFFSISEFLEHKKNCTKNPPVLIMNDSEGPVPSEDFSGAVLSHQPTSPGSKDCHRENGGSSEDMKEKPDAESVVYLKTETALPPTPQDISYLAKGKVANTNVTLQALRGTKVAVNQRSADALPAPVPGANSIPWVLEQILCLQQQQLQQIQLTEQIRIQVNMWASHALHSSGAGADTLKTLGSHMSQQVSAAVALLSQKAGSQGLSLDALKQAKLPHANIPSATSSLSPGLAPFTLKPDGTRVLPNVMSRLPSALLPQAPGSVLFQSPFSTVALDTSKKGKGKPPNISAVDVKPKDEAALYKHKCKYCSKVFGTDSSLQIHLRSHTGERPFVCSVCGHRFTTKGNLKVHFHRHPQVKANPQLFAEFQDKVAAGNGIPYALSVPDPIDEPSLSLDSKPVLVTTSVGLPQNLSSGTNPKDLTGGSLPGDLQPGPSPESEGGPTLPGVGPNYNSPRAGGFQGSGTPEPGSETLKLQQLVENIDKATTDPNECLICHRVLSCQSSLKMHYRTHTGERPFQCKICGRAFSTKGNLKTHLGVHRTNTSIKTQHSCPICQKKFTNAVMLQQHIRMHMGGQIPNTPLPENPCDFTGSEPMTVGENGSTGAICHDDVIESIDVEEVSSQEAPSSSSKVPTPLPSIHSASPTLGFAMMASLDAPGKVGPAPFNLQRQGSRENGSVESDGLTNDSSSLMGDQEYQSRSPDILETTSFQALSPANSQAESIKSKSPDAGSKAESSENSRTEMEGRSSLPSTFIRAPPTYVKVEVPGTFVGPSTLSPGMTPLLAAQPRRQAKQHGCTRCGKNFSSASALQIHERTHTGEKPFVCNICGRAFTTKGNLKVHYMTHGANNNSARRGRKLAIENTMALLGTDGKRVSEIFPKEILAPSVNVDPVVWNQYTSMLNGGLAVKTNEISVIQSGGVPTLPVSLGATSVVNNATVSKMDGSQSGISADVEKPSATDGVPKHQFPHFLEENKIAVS
# Technique: universal PBM
# Molecule type: double-stranded DNA, one strand shown
# Medium: in vitro
# Tested at: 600 nM
# Notes: 8-mer, flanks averaged, mean of replicates
# Direction: higher = stronger binding
Oligonucleotide,E-score
AATTCGAA,0.207
TTCCGAAA,0.224
CACCAACC,-0.258
AAGTTGCC,-0.227
ACCCAGCT,-0.286
ATCCTTTA,0.157
ACGGTTCT,-0.114
CTTCTAGA,0.0891
GTTCCCTA,-0.0283
ACGAAGAG,0.101
CAATCCAC,-0.031
ATCGAAAT,0.169
GGATCTAC,-0.0134
AAATCTCA,0.129
CACGCGCG,-0.213
CTGAATTA,0.269
ATGACGGC,-0.154
CGCGAGCC,-0.331

# Block 2
# Target: CCNB1, cyclin fold, Cln2 fusion (human)
# Technique: yeast growth competition, sequencing
# Medium: yeast
# Notes: weak parent motif
# Reference: not given
# Direction: higher = stronger binding
# Starting sequence: ORC1 docking peptide (human); PRARKRLELGNLG
Change,normalised enrichment score
PRARSRLELGNLG [K5S],-0.0523
PRARKRLELGNYG [L12Y],-0.191
PRARKRLPLGNLG [E8P],0.885
PRARKRLEYGNLG [L9Y],0.453
MRARKRLELGNLG [P1M],-0.519
PRARKRLELGNDG [L12D],-0.0745
PGARKRLELGNLG [R2G],0.0419
PRERKRLELGNLG [A3E],0.759
PRARKRLELGNLY [G13Y],0.589
PRARKRLELGQLG [N11Q],0.0273
HRARKRLELGNLG [P1H],0.0477
PRARKRLELGNLT [G13T],-0.0782
PRARKRLMLGNLG [E8M],0.597
PRARKPLELGNLG [R6P],0.342
PRRRKRLELGNLG [A3R],0.57
PRARKRLELGRLG [N11R],0.685
PRARHRLELGNLG [K5H],0.111

# Block 3
# Target: ABI1, truncated, D143A, DHFR fusion (Arabidopsis thaliana)
# Technique: DHFR PCA, deep sequencing
# Medium: yeast
# Notes: methotrexate growth selection, single substitutions
# Added: (+)-ABA 0 µM
# Reference: wild-type fitted maximum
# Direction: higher = stronger binding
# Starting sequence: PYL1, truncated, DHFR fusion (Arabidopsis thaliana); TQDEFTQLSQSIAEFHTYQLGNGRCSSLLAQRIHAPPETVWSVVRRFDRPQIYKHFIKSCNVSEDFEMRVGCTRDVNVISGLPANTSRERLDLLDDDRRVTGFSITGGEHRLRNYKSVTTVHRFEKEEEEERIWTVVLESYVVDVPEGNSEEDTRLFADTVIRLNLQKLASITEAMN; partner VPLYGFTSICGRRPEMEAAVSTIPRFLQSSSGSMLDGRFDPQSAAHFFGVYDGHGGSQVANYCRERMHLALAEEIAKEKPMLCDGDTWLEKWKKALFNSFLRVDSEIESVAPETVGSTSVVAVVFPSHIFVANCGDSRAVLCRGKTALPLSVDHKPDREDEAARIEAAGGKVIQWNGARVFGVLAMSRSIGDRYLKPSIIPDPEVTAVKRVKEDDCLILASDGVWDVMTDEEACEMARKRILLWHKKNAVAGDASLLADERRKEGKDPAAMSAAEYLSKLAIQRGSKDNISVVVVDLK
Change,relative binding score [%]
L156I,0.891
K54G,-0.74
D153S,-1.22
E151L,17.6
E129T,22.1
F157I,4.12
A13G,7.37
E14F,3.72
L20K,44.9
C72N,5.64
N149R,13.5
D144C,-13.7
G23R,19.2

# Block 4
# Target: Phosphate system positive regulatory protein PHO4, full length, GST-tagged (PHO4, Saccharomyces cerevisiae, UniProt P07270, residues 1-312)
# Technique: competition protein-binding microarray
# Molecule type: double-stranded DNA, one strand shown
# Medium: in vitro
# Tested at: 2 µM
# Notes: whole 60-bp probe, lowest competitor level
# Added: Cbf1 competitor, 0.05 µM
# Direction: higher = stronger binding
# Residues (chain): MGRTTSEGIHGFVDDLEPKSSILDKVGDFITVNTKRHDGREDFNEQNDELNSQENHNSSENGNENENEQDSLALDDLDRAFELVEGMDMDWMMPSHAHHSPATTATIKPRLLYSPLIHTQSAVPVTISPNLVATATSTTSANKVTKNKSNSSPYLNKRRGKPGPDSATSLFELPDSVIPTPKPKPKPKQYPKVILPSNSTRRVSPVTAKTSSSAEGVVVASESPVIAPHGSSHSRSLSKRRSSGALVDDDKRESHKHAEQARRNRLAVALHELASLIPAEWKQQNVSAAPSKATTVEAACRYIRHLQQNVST
Oligonucleotide,fluorescence intensity
TTTTTTGAGACTTACCTCGTGTTGGTGTCTCCCTGGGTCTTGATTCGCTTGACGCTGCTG,9160 a.u.
ACTTTCAACGTCCATCACGTGAACGACCGGCATTCTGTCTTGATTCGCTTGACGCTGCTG,11900 a.u.
AAATTACTAAGTTGCCACGTGTTTTACCCCGTATGAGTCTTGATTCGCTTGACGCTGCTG,18500 a.u.
GAATGACTAAAGTCCCACGTTTTTCCCACTTTTAGTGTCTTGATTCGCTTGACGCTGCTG,13500 a.u.
GTTTGGTCCTATCAACATGTGCCGAGAATTGTCGGAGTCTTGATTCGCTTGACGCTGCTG,12200 a.u.
CTTCTGTAAATTTGCTAAGTGGGTGGACGCGCCCCGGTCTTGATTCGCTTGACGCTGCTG,4350 a.u.
GTCTTGTCTCATTGCCTTGTGGGTGTCCCCACTTCAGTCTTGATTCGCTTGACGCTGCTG,5790 a.u.
GGTGCCTTATTTCCGCACGTTTTTCAACATACGGCTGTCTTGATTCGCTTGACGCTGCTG,13100 a.u.
GATGGAGGATGCCCCCATGTGCTGATTCTCCCCGTAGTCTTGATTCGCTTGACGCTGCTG,11800 a.u.
TGAACCCCAACCTCATGTGTGACGGCTCTTCTCCCGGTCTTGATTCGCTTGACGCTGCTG,7170 a.u.
AAAGCGGTAATTTTTCACGTGCGGTCAAATATCTATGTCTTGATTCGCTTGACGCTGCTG,12900 a.u.
CTCTAATCCCACCACCACATGCCACACTCACCCTCAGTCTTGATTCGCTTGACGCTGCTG,13400 a.u.

# Block 5
# Target: Interferon regulatory factor 3, full length, phosphomimetic (IRF3, Homo sapiens, UniProt Q14653, residues 1-427, S386D/S396D/S398D/S402D/T404D/S405D)
# Technique: protein-binding microarray
# Molecule type: double-stranded DNA, one strand shown
# Medium: in vitro
# Tested at: 2540 nM top
# Notes: 60-bp whole probe
# Added: salmon DNA 0.4 mg/ml
# Reference: random background probes
# Direction: higher = stronger binding
# Shared flanks, not repeated: GCCTAGCAC … GTCTTGATTCGCTTGACGCTGCTG
# Construct (chain): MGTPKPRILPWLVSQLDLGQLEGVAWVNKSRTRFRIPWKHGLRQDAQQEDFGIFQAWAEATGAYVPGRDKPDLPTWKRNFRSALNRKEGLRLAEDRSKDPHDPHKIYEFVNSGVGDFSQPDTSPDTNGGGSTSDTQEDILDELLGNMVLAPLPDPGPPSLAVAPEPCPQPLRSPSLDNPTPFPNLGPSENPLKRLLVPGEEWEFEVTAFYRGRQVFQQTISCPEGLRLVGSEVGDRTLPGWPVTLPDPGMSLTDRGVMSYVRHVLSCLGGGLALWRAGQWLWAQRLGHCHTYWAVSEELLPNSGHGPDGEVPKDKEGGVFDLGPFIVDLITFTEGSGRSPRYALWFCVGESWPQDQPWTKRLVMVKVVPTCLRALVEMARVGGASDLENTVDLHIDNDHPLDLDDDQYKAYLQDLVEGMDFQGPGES
Oligonucleotide,fitted relative affinity [z-score]
TCATTTTTCTACTTCTCACTGTGCTAG,2.47
GCCAAAAGTGTAAATGTAAGGTGCTAG,-0.22
TTAGGACTGCTTTTCCTTTAGTGCTAG,0.903
TATTGTCTCCCCCATCTTGTTGTGCTA,0.714
TTAGGTTTCCTTTCCCTTAAGTGCTAG,10.4
TTAGGTCTCGGACTGGGTCAGTGCTAG,-0.306
AATTCTTTGCTCATTTTTCAGGTGCTA,1.15
GACGGTCTCGGGTTCGGGACGTGCTAG,0.318
CTCCCCCTCCCCCTCAGATCGTGCTAG,0.139
GACGGATTCCTTTCCCTGACGTGCTAG,5.17
GACGAAATCAGTTTCGAGACGTGCTAG,3.35
GACGATATCCGGACTGGAGACGTGCTA,0.809
GACGGTATCGGACTGAGGACGTGCTAG,1.5
TGAGGACTGGGACTGGGTTAGTGCTAG,-1.33
GACGGAGTGCTTATCCTGACGTGCTAG,-0.201

# Repeated from above (block 4):
Oligonucleotide,fluorescence intensity
AAATTACTAAGTTGCCACGTGTTTTACCCCGTATGAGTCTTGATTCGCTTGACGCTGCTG,18500 a.u.
GAATGACTAAAGTCCCACGTTTTTCCCACTTTTAGTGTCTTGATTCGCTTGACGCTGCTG,13500 a.u.
GTTTGGTCCTATCAACATGTGCCGAGAATTGTCGGAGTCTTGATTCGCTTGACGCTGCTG,12200 a.u.
CTTCTGTAAATTTGCTAAGTGGGTGGACGCGCCCCGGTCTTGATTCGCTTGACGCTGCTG,4350 a.u.
GTCTTGTCTCATTGCCTTGTGGGTGTCCCCACTTCAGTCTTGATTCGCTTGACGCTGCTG,5790 a.u.
GGTGCCTTATTTCCGCACGTTTTTCAACATACGGCTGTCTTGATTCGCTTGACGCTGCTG,13100 a.u.
